Measured values gathered from unrelated publications.
Each numbered part is a random draw from the data of one study; scales do not carry over between parts. Values joined by “and” are separate records of one study, mostly repeats; a detail may differ.
Sequence of UniProt Q14164 (whole entry, looked up): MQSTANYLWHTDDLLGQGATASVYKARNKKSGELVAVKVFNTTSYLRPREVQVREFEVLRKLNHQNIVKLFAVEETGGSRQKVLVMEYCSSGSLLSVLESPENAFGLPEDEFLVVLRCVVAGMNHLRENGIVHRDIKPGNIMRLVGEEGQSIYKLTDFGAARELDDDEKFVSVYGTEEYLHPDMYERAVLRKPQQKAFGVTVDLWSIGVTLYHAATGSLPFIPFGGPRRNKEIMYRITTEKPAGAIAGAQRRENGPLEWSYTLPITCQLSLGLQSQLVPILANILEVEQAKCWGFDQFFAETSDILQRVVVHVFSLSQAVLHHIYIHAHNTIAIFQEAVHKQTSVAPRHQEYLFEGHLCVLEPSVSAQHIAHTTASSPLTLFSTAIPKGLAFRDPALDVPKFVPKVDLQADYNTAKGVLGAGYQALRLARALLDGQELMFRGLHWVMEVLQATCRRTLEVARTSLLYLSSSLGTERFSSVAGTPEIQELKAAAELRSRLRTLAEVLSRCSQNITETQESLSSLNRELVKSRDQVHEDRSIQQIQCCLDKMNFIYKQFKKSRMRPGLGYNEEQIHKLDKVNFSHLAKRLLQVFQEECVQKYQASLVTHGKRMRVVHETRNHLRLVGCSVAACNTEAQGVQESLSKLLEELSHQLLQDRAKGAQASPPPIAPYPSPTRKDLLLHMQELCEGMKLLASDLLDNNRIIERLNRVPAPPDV
Sequence of UniProt P51957 (whole entry, looked up): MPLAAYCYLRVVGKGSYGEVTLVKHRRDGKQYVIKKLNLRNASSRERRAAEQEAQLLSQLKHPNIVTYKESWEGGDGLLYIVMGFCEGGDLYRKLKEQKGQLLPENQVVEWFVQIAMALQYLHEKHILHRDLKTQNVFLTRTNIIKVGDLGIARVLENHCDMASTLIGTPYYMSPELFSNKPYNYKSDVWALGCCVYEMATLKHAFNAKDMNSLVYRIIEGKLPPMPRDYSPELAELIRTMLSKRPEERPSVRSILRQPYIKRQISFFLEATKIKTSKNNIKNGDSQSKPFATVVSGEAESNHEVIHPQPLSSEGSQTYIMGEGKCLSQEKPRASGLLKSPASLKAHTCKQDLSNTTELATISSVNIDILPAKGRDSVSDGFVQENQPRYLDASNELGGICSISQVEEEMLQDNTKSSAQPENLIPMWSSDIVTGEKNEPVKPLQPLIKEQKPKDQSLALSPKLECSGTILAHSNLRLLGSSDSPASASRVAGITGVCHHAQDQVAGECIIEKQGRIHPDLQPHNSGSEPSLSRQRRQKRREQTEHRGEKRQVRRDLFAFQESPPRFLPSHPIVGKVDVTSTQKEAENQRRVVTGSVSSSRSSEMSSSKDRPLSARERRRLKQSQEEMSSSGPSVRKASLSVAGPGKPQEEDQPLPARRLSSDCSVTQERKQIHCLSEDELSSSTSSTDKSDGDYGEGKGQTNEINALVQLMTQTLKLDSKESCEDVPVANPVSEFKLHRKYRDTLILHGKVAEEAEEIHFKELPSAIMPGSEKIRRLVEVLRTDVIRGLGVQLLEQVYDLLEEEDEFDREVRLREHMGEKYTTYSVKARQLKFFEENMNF
Sequence of UniProt P11362 (whole entry, looked up): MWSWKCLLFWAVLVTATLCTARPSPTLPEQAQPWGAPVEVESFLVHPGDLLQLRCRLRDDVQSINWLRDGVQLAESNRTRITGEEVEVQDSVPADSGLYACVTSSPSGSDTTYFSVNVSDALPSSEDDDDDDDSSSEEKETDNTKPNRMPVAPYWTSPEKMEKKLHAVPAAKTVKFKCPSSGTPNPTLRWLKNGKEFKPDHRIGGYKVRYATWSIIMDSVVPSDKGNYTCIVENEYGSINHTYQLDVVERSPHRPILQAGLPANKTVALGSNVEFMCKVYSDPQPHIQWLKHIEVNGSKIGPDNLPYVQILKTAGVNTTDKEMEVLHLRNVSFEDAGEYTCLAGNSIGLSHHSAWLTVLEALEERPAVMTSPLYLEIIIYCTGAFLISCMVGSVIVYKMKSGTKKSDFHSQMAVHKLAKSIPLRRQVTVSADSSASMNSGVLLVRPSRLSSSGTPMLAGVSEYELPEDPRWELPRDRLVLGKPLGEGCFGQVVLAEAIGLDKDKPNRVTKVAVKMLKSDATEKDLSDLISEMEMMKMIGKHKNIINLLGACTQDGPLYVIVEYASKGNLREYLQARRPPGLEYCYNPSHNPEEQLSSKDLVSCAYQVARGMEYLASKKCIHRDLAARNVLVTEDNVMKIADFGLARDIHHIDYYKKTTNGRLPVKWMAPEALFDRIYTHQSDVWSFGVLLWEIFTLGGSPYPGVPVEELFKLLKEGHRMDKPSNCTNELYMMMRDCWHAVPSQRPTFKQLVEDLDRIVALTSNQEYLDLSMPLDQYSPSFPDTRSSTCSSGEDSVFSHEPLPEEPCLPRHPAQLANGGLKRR
Sequence of UniProt P42336 (whole entry, unmodified, looked up): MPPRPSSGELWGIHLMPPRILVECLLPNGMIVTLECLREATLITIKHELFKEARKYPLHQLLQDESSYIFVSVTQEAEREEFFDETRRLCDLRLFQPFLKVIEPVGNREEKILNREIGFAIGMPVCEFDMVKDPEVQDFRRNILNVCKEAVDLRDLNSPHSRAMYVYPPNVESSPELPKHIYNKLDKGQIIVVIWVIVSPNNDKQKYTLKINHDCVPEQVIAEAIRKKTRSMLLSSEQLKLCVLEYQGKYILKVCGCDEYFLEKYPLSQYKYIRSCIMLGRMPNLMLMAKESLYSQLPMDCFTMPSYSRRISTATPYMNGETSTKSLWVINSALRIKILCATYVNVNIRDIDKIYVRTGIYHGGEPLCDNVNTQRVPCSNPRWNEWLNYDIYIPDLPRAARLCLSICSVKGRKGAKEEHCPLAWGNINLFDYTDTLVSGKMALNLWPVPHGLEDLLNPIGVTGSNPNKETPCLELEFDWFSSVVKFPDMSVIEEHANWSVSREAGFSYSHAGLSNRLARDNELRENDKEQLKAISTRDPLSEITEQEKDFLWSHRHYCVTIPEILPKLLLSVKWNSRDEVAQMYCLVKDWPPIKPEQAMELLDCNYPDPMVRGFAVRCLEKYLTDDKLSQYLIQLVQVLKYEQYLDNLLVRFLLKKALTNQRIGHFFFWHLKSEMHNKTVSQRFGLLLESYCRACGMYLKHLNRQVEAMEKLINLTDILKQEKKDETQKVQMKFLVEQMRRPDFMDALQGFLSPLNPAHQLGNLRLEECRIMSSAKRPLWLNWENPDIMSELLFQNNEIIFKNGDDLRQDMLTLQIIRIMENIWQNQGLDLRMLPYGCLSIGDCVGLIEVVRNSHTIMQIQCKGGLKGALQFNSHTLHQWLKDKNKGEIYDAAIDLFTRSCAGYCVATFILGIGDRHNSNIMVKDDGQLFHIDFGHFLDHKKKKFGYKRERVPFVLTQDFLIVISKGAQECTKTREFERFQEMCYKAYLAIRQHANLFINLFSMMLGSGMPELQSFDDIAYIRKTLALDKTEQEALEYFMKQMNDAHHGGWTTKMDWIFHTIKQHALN

Set 1
Target: ALK tyrosine kinase receptor (ALK, Homo sapiens, UniProt Q9UM73)
Sequence of UniProt Q9UM73 (whole entry, looked up): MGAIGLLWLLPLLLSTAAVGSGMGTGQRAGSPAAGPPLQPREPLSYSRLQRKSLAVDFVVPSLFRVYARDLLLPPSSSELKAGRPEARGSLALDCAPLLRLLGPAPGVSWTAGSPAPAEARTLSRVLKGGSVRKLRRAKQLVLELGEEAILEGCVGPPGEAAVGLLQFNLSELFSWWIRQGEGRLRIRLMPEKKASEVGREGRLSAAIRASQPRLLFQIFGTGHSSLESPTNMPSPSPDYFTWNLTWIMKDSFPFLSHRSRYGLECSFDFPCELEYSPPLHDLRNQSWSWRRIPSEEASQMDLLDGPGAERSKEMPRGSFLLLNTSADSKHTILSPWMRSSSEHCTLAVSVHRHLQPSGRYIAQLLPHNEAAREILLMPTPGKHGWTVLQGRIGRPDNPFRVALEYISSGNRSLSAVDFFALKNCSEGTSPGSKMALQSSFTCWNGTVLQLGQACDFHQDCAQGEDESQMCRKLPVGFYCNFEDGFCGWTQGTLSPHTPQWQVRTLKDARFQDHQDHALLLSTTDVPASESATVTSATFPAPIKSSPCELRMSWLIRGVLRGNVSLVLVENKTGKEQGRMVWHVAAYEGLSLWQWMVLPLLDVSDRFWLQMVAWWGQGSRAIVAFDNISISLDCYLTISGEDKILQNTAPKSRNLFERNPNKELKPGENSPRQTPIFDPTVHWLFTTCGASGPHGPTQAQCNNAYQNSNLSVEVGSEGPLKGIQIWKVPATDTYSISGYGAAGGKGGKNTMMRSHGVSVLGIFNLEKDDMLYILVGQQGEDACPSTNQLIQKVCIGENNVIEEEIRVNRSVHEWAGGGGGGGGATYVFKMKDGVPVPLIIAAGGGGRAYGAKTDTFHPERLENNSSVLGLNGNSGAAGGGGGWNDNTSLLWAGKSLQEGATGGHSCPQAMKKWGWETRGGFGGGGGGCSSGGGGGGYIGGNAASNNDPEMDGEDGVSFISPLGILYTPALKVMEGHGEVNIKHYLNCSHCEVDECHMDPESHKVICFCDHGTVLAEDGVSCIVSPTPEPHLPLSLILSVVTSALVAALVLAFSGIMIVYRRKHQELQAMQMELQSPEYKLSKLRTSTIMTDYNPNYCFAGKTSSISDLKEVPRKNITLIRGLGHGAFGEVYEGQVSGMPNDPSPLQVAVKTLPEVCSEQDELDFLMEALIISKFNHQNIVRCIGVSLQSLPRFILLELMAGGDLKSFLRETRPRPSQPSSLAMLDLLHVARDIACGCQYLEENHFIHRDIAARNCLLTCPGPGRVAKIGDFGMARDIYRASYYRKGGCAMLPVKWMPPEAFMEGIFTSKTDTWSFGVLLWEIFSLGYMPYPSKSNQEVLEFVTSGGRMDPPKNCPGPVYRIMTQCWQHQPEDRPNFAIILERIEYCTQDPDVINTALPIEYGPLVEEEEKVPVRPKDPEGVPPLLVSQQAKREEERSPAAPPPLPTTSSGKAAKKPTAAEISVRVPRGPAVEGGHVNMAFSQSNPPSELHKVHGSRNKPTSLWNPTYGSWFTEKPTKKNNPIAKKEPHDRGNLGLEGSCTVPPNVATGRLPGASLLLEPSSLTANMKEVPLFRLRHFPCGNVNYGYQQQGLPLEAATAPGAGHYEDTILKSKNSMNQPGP
Effect on: enzyme activity
Action: inhibitor
Tested at: 0.5 µM
Relative to: control
The remaining activity of `Cn1nc2c3c(cccc31)C(=O)c1ccccc1-2` is reported as 87.4%.
For `O=C1c2ccccc2-c2n[nH]c3cccc1c23`, the remaining activity was 91.7%.
`COc1cc2ncnc(Nc3cccc(Cl)c3)c2cc1OC` has a remaining activity of 91.5%.
With `O=C(NC(NC(=S)Nc1ccc(F)c([N+](=O)[O-])c1)C(Cl)(Cl)Cl)C(c1ccccc1)c1ccccc1` (centres unmarked) the remaining activity was 110%.
`Cc1cc2ncc(-c3ccccc3)nc2cc1C` gave a remaining activity of 98%.
With `CCOc1nc(NC(=O)Cc2cc(OC)ccc2OC)cc(N)c1C#N` the remaining activity was 92.9%.
`Ic1cccc(CSc2nnc(-c3ccncc3)o2)c1` gave a remaining activity of 101%.
`O=c1cc(-c2cccc3c2Sc2ccccc2S3)oc(N2CCOCC2)c1` gave a remaining activity of 96.2%.
With `COc1cc2ncnc(Nc3ccc(O)c(Br)c3)c2cc1OC` the remaining activity was 12.5%.
With `CCN(CC)CCNC(=O)c1c(C)[nH]c(/C=C2\C(=O)Nc3ccc(Cl)cc32)c1C` the remaining activity was 3.45%.
`Cc1cn(-c2cc(NC(=O)c3ccc(C)c(Nc4nccc(-c5cccnc5)n4)c3)cc(C(F)(F)F)c2)cn1` has a remaining activity of 103%.
`N#C/C(=C\c1ccc(O)c(O)c1)C(=O)NCc1ccccc1` gave a remaining activity of 105%.
`c1ccc(-c2cnc(Nc3ccc(OCCN4CCCC4)cc3)s2)cc1` has a remaining activity of 97%.
`COc1cc2c(cc1OC)-c1[nH]nc(Nc3cccc(F)c3)c1C2` gave a remaining activity of 103%.
The remaining activity of `O=C(Nc1cccc(Nc2nccc(Nc3cccc(C(F)(F)F)c3)n2)c1)C1CC1` is reported as 99.8%.
The remaining activity of `c1ccc(-c2[nH]ncc2-c2ccnc3ccccc23)nc1` is reported as 111%.
The remaining activity of `Nc1cccc(-c2cc3c(Oc4cccc(O)c4)ncnc3[nH]2)c1` is reported as 80.9%.
With `C[C@@H]1CCN(C(=O)CC#N)C[C@@H]1N(C)c1ncnc2[nH]ccc12` the remaining activity was 107%.
`Cc1nc2cc3nc(-c4cccs4)cnc3cc2n1C` has a remaining activity of 99.8%.
The remaining activity of `N#Cc1c(NC(=O)c2cccc3ccccc23)sc2c1CCCC2` is reported as 96.4%.
With `CN([C@@H](Cc1ccc(OS(=O)(=O)c2cccc3cnccc23)cc1)C(=O)N1CCN(c2ccccc2)CC1)S(=O)(=O)c1cccc2cnccc12` the remaining activity was 96.5%.
`CN(C)C[C@H]1CCn2c(c(C3=C(c4cn(C)c5ccccc45)C(=O)NC3=O)c3ccccc32)C1` has a remaining activity of 99.6%.
`O=C1C(Cl)=C(N2C(=O)CCC2=O)C(=O)c2ccccc21` gave a remaining activity of 88.5%.
For `CCN(CC)C(=O)c1ccc(Nc2nc(OCC3CCCCC3)c3[nH]cnc3n2)cc1`, the remaining activity was 74.9%.

Set 2
Cell line: HaCaT
Tested at: 100 µM
Time: 36 h
With `CCOC(=O)C(C)(C)Oc1ccc(Cl)cc1` the viability was 65.8%.
For `C[C@]12C=CC(=O)N[C@@H]1CC[C@@H]1[C@@H]2CC[C@]2(C)[C@@H](C(=O)Nc3cc(C(F)(F)F)ccc3C(F)(F)F)CC[C@@H]12`, the viability was 73.5%.
For `NC(CO)(CO)CO`, the viability was 92.9%.
`Cc1[nH]c2ccccc2c1CCNCc1ccc(/C=C/C(=O)NO)cc1` has a viability of 6.37%.
For `CCCNC(=O)NS(=O)(=O)c1ccc(Cl)cc1`, the viability was 96.5%.
`CCn1nc(C(=O)O)c(=O)c2cc3c(cc21)OCO3` has a viability of 65.5%.
The viability of `Cn1c(=O)c2[nH]c(Br)nc2n(C)c1=O` is reported as 80.5%.

Set 3
Cell line: normal organoid sample F
Technique: CellTiter-Glo
Host: human
Medium: normal-adjacent epithelium
Tested at: 1 µM
Relative to: DMSO
`COc1cc(-c2cn(C3CCc4ccccc4N(CC(F)(F)F)C3=O)nn2)ccc1-n1ccc(C)n1` (centres unmarked) has a viability of 83.4% and 112%.
`C[C@H](c1cccc(C#N)c1)n1cc(Cl)cc(C(N)=O)c1=N` gave a viability of 143% and 128%.
With `CCC(=O)N[C@@H]1CC[C@H](C(=O)N(C)c2ccc(-c3nc4ccccc4o3)cc2)C1` the viability was 112% and 98.9%.
For `COc1cc(-c2cn(C3CCc4c(F)cccc4N(CC(F)(F)F)C3=O)nn2)ccc1-n1cnc(C)c1` (centres unmarked), the viability was 106% and 110%.
`Cn1cncc1[C@](O)(COc1ccc(C#N)cc1-c1ccc(OC(F)(F)F)cc1)c1ccc(C#N)cc1` gave a viability of 69.4% and 45.2%.

Set 4
Structure (SMILES): COc1ccc2[nH]c3c4[nH]c5ccc(OC)cc5c4c4c(c3c2c1)C(=O)NC4=O
Tested at: 1 µM
Serine/threonine-protein kinase BRSK2 (BRSK2, Homo sapiens, UniProt Q8IWQ3); competitive binding panel; relative to: vehicle — remaining binding: 6.2%.
Serine/threonine-protein kinase Nek4 (NEK4, Homo sapiens, UniProt P51957); competitive binding panel; relative to: vehicle — remaining binding: 85%.
It gave 100% for remaining binding (Fibroblast growth factor receptor 1 (FGFR1, Homo sapiens, UniProt P11362); competitive binding panel; relative to: vehicle).
It gave 76% for remaining binding (BMP-2-inducible protein kinase (BMP2K, Homo sapiens, UniProt Q9NSY1); competitive binding; BIKE).
Phosphatidylinositol 4,5-bisphosphate 3-kinase catalytic subunit alpha isoform (PIK3CA, Homo sapiens, UniProt P42336, E542K); competitive binding panel; relative to: vehicle — remaining binding: 92%.
Inhibitor of nuclear factor kappa-B kinase subunit epsilon (IKBKE, Homo sapiens, UniProt Q14164); competitive binding; IKK-epsilon — remaining binding: 48%.

Set 5
Host: mouse
Medium: microsomes or S9
Tested at: 2 µM
Time: 0.5 h
The remaining compound of `Cn1cc(Br)c(=O)c(NC(=O)c2ccc(O)cc2F)c1` is reported as 56.4%.
`CCOc1cc(=O)n2c(c1C(=O)Nc1cc(Cl)c(OC)cc1OC)CCCC2` has a remaining compound of 87.4%.
`Oc1ccc(Oc2nc3ccccc3nc2Oc2ccc(O)cc2)cc1` gave a remaining compound of 78.1%.
For `Fc1ccc(CNc2nc3ncc(Br)nc3s2)cc1`, the remaining compound was 28.3%.
For `CC(C)C(C(=O)Nc1cccc2[nH]ccc12)N1Cc2ccccc2C1=O` (centres unmarked), the remaining compound was 93.1%.
`CC(C)(C)c1ccc(S(=O)(=O)n2ccnc2)cc1` has a remaining compound of greater than 99%.
For `CCCc1cc(-n2ccnc2C)n2nc3nc(C)cc(C)c3c2n1`, the remaining compound was 39.5%.
`CCOC(=O)c1c(C)c(C(=O)NCCCN(C)C)c(C)n1CC` gave a remaining compound of 80.7%.
The remaining compound of `COc1cc2c(cc1Nc1ncc(Cl)c(Nc3ccc(C4CCN(C(C)=O)CC4)cc3OC)n1)CCCNC2` is reported as greater than 100%.
For `COc1c(F)c(F)cc2c(=O)c(C(=O)NCCCN3CCCC3=O)cn(C3CC3)c12`, the remaining compound was 27.6%.
`COc1cc2c(Nc3ccc(Br)cc3F)ncnc2cc1OCC1CN(C(=O)OC(C)(C)C)CCO1` (centres unmarked) has a remaining compound of 2.54%.
